Published values collected from several papers.
Numbered parts are unrelated; each lists some results of a single study. Positions count from the first letter of the parent shown.

Sample 1
Target: CCNF, cyclin fold, Cln2 fusion (human)
Method: yeast growth competition, sequencing
Matrix: yeast
Notes: strong parent motif
Reference: not given
Direction: higher = stronger binding
Parent: MICAL3 docking peptide (human); LQLRRQLSFSEDS
`LQLRRQLAFSEDS [S8A]` — result for “normalised enrichment score”: 5.8.
Under “normalised enrichment score”, `LQLRQQLSFSEDS [R5Q]` is recorded as 0.29.
`LQLRRHLSFSEDS [Q6H]` — result for “normalised enrichment score”: 4.5.
`LQLVRQLSFSEDS [R4V]` — result for “normalised enrichment score”: 3.03.
Under “normalised enrichment score”, `LQLRRQLSASEDS [F9A]` is recorded as 0.267.
Under “normalised enrichment score”, `LQLRRQLSTSEDS [F9T]` is recorded as 0.139.
`LDLRRQLSFSEDS [Q2D]`: “normalised enrichment score” 4.8.
For `LQLRRQLSFSESS [D12S]`, “normalised enrichment score” read 5.34.
For `LQLRWQLSFSEDS [R5W]`, “normalised enrichment score” read 0.38.
`LYLRRQLSFSEDS [Q2Y]` — result for “normalised enrichment score”: 5.39.
For `LQGRRQLSFSEDS [L3G]`, “normalised enrichment score” read 4.89.
For `LTLRRQLSFSEDS [Q2T]`, “normalised enrichment score” read 5.26.
Under “normalised enrichment score”, `LQLRRQLSFSGDS [E11G]` is recorded as 5.49.
Under “normalised enrichment score”, `LQLRRQLSISEDS [F9I]` is recorded as 0.248.
`LQLRRQLSFREDS [S10R]` — result for “normalised enrichment score”: 4.95.
`LQFRRQLSFSEDS [L3F]`: “normalised enrichment score” 4.43.
For `LQRRRQLSFSEDS [L3R]`, “normalised enrichment score” read 1.08.
`LQLIRQLSFSEDS [R4I]` — result for “normalised enrichment score”: 2.33.
`LILRRQLSFSEDS [Q2I]` — result for “normalised enrichment score”: 3.98.
`LQLWRQLSFSEDS [R4W]`: “normalised enrichment score” 1.9.
Under “normalised enrichment score”, `LQLRRQLKFSEDS [S8K]` is recorded as 7.98.
`LQLRRQTSFSEDS [L7T]`: “normalised enrichment score” -0.163.
`LQLRRQLSFSEQS [D12Q]`: “normalised enrichment score” 5.4.
For `LQLRRVLSFSEDS [Q6V]`, “normalised enrichment score” read 3.8.
`LQLRRQLSFVEDS [S10V]`: “normalised enrichment score” 5.03.

Sample 2
Target: ABI1, truncated, D143A, DHFR fusion (Arabidopsis thaliana)
Method: DHFR PCA, deep sequencing
Matrix: yeast
Notes: methotrexate growth selection, single substitutions
Added: (+)-ABA 4.8 µM
Reference: wild-type fitted maximum
Direction: higher = stronger binding
Parent: PYL1, truncated, DHFR fusion (Arabidopsis thaliana); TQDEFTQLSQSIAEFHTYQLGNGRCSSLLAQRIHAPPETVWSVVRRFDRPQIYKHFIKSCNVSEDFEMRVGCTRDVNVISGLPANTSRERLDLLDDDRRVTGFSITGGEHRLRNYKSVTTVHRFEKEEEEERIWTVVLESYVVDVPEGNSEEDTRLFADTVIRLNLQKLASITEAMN; partner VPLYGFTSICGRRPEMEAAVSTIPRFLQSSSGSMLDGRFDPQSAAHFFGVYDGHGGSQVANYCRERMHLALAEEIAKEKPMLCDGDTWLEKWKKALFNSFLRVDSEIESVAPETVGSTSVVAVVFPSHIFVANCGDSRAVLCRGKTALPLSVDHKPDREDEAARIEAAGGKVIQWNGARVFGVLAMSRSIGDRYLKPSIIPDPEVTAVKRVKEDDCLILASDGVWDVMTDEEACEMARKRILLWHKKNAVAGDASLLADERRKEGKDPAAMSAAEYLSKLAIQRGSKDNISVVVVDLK
For `Q2S`, “relative binding score” read 72.5%.
`N114E`: “relative binding score” 3.38%.
For `Q19E`, “relative binding score” read 83.5%.
`E147K` — result for “relative binding score”: 57.4%.
Under “relative binding score”, `L93Y` is recorded as 63.7%.
Under “relative binding score”, `E151A` is recorded as 86.1%.
For `K58S`, “relative binding score” read 61.3%.
`T101G`: “relative binding score” -6.93%.
For `Q10V`, “relative binding score” read 55.1%.
Under “relative binding score”, `M176F` is recorded as 51.5%.
For `T1Q`, “relative binding score” read 71%.
`F103C` — result for “relative binding score”: -7.57%.
Under “relative binding score”, `R163H` is recorded as 25.2%.
`R98M`: “relative binding score” 48.9%.
Under “relative binding score”, `T101K` is recorded as -8.07%.
`D3Q`: “relative binding score” 71.5%.
`H34L`: “relative binding score” 70.1%.

Sample 3
Target: Centromere-binding protein 1, full length, His-tagged (CBF1, Saccharomyces cerevisiae, UniProt P17106, residues 1-351)
Sequence of UniProt P17106 (whole entry, looked up): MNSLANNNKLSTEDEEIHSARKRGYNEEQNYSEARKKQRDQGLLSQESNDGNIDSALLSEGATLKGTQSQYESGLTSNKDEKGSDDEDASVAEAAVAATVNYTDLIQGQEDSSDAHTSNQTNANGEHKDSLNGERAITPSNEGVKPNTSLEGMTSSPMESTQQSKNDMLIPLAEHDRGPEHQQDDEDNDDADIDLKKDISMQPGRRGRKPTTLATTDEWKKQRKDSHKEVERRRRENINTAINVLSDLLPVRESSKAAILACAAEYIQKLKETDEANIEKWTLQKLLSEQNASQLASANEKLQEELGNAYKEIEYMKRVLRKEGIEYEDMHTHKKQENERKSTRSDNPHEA
Method: competition protein-binding microarray
Form: double-stranded DNA, one strand shown
Matrix: in vitro
Tested at: 2 µM
Notes: whole 60-bp probe, lowest competitor level
Added: Pho4 competitor, 0.05 µM
Direction: higher = stronger binding
Shared flanks, not repeated: … GTCTTGATTCGCTTGACGCTGCTG
For `GTCTTGTCTCATTGGCGAGTGGGTGTCCCCACTTCA`, the fluorescence intensity was 65.9 a.u.
`AAGTTGAGGCTGAAGCAGGTGATGCTGGAACAAAGA` gave a fluorescence intensity of 125 a.u.
`CCTTAACGCAATCGGTGTGTGATATTGCTCTAAGGT` gave a fluorescence intensity of 74.6 a.u.
The fluorescence intensity of `CAACCGCATCGGCCCAACCTGATCTTGCAATTAGCA` is reported as 54 a.u.
With `CTTTCCCGATCTTGAAGAGTGGGTGTAGCACATTTG` the fluorescence intensity was 71.9 a.u.
With `AAATTACTAAGTTGTCACCGAACTTACCCCGTATGA` the fluorescence intensity was 80.9 a.u.
The fluorescence intensity of `TCCCATTGCATTACCCACGTGTGGAAGCGTCTTCCA` is reported as 580 a.u.
`TAGGATGACCGTCACCATGTGATCCAAATGCACTCA` has a fluorescence intensity of 1080 a.u.
The fluorescence intensity of `TGATATTCTGGCCGTCACGTCTTCTTTGTTTTCTTT` is reported as 124 a.u.
For `CCTCCTATGCTGCGTCTCGTGGGTACTATGGCGTCG`, the fluorescence intensity was 94.5 a.u.
The fluorescence intensity of `CTTTCCGGTTCGGGCCAGGTGACGGAAATCGTTCTG` is reported as 84.2 a.u.
For `CATACCCAACCTTGTGGAGTGGGTGAAGATATTTGT`, the fluorescence intensity was 54.1 a.u.
`AAATTACTAAGTTTTCACGTGAGTTACCCCGTATGA` has a fluorescence intensity of 923 a.u.
`CGGCCCAGATTTTTTCACCTGACTCCGGTCCTGACG` gave a fluorescence intensity of 134 a.u.
For `CTTTCCCGATCTTGCTTAGTGGGTGTAGCACATTTG`, the fluorescence intensity was 71.3 a.u.
For `AAATATCTAAGCCATCACATGACAGCAAGACCCTTT`, the fluorescence intensity was 900 a.u.
With `TAGCACAGGCACCCGCACACGCAGAGCTCACAGACC` the fluorescence intensity was 74.9 a.u.
`GATATCCTTTCCCATCACGTGAAGGGTGTTTCGCTG` gave a fluorescence intensity of 3100 a.u.
The fluorescence intensity of `AAATTACTAAGTTGCACCGTGGGTGACGCCGTATGA` is reported as 72 a.u.
With `AAATTACTAAGTTGGCAGGTGGGTGACGCCGTATGA` the fluorescence intensity was 61.7 a.u.
`ATTTACGGTTAGTCCCACGCTATAACCCGCCGTTGT` gave a fluorescence intensity of 57.4 a.u.
`TATATTTTTCAACTCCACGTGATGGCAAGCCCAACC` gave a fluorescence intensity of 2420 a.u.
The fluorescence intensity of `GGCAGGCGAAAATCCTATGTGCGTAGAGCTGATACA` is reported as 61.2 a.u.
For `CTACCATTATGCAAAAGCGTGCTAAGAAGAACGAAA`, the fluorescence intensity was 110 a.u.
The fluorescence intensity of `TCAAGTGGGGTAGGACACGGGACTTCAGGTCCTCCT` is reported as 188 a.u.

Sample 4
Target: Histone acetyltransferase KAT6A, winged helix 1, GST fusion (KAT6A, Homo sapiens, UniProt Q92794, residues 1-85)
Method: protein binding microarray
Form: double-stranded DNA, one strand shown
Matrix: in vitro
Tested at: not given
Notes: 8-mer, flanks averaged, mean of 2 arrays, mostly near background
Reference: not given
Direction: higher = stronger binding
Residues (chain): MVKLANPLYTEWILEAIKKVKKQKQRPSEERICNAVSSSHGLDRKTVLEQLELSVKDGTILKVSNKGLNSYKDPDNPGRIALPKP
For `ATGGCGTC`, the E-score was 0.138.
With `CCGCATGC` the E-score was 0.233.
The E-score of `ACCATGTG` is reported as -0.15.
`ACTCTTCA` has an E-score of -0.24.
With `CACCTAAC` the E-score was -0.181.
`CCACCGCG` has an E-score of 0.27.
`CTATGATA` gave an E-score of -0.0621.
The E-score of `CCTATGTC` is reported as -0.226.
`GCAGCGCA` gave an E-score of 0.266.
The E-score of `ATCCTCTA` is reported as -0.259.
For `GGGTCAGA`, the E-score was 0.0408.
The E-score of `ACTAGAGA` is reported as -0.046.
With `ACTTCTTG` the E-score was -0.126.
`CAGATATA` gave an E-score of -0.165.
The E-score of `AAGACAGT` is reported as -0.0406.
For `AGAGGACG`, the E-score was -0.00933.
For `AGACTTCC`, the E-score was -0.0772.
The E-score of `GTTGTGGA` is reported as -0.201.
With `CAGCGTGC` the E-score was 0.263.
For `AGCTGATC`, the E-score was -0.0845.
For `ATACAGGA`, the E-score was 0.11.
With `ACACTCGT` the E-score was -0.242.
For `CCCTCTAA`, the E-score was -0.199.
`CGCGGAAG` gave an E-score of 0.327.
`TCCCTCAA` gave an E-score of -0.125.

Other studies, line by line
Method: cross-linking MS
Matrix: cell fractions
`CANX (Homo sapiens, UniProt P27824)` — result for cross-linked residues: “K170 to K690” (FSIP2 (Homo sapiens, UniProt Q5CZC0); added: DSSO).
Under cross-linked residues, `PCNT (Homo sapiens, UniProt O95613)` is recorded as “E874 to K821” (ADCY4 (Homo sapiens, UniProt Q8NFM4); added: DMTMM).
`MTCL2 (Homo sapiens, UniProt O94964)` — result for cross-linked residues: “E342 to E618” (SPTAN1 (Homo sapiens, UniProt Q13813); added: DHSO).
For `NEMF (Homo sapiens, UniProt O60524)`, cross-linked residues read “K347 to K23” (KPNB1 (Homo sapiens, UniProt Q14974); added: DSSO).
